# Measured values of several laboratories.
# ± marks the error that the study gave.
Molecule,tested on,assay,test system,conditions,quantity,value
COc1cccc2c1C(=O)c1c(O)c3c(c(O)c1C2=O)C[C@@](O)(C(=O)CO)C[C@@H]3O[C@H]1C[C@H](NC(=O)[C@@H]2CCCN2C(=O)CNC(=O)[C@H](CC(C)C)NC(=O)[C@H](C)NC(=O)CP(=O)(O)O)[C@H](O)[C@H](C)O1,,,"mouse, E0771 tumour-bearing, heart","intravenous, 92 µmol/kg",Cmax,19 µM
CN[C@@](C)(C[18F])C(=O)O,DU-145 tumour model,,"host not given, tumour","30 min, tumour-bearing",tracer uptake,5.1 %ID/g
melittin,,CD titration,POPC 100% POPG 0% vesicles,"pH 7.0, 50 °C",free energy of partitioning,-5.9 kcal/mol
Nc1nc2[nH]cc(CCc3ccc(C(=O)N[C@@H](CCC(=O)N[C@@H](Cc4ccccc4)C(=O)N[C@@H](Cc4ccccc4)C(=O)N[C@@H](CCC(=O)O)C(=O)N[C@@H](CCC(=O)O)C(=O)O)C(=O)O)cc3)c2c(=O)[nH]1,,conventional TEM,1× DPBS,"24 h, room temperature, aged, self-assembled",nanofiber diameter,9.1 ± 1.4 nm
N=C(N)NCCC[C@@H]1NC(=O)[C@H](CCCCNC(=O)[C@H](CC(=O)O)NC(=O)[C@H](CC(=O)O)NC(=O)[C@H](CC(=O)O)NC(=O)CC[C@H](NC(=O)CCOCCOCCOCCOCCNC(=O)c2ccc(NN)nc2)C(=O)N[C@@H](CC(=O)O)C(=O)N[C@@H](CC(=O)O)C(=O)N[C@@H](CC(=O)O)C(=O)NCCCC[C@@H]2NC(=O)[C@@H](Cc3ccccc3)NC(=O)[C@H](CC(=O)O)NC(=O)CNC(=O)[C@H](CCCNC(=N)N)NC2=O)NC(=O)[C@@H](Cc2ccccc2)NC(=O)[C@H](CC(=O)O)NC(=O)CNC1=O [technetium-99m labelled],,γ-counting,"female athymic nude mice, U-87 MG xenograft, kidneys","intravenous, 2 h",tissue uptake,15.4 ± 2.3 %ID/g
Cc1ccccc1NC(=O)Nc1ccc(CC(=O)N[C@@H](CCCCNC(=O)/C=C/c2cccnc2)C(=O)N[C@@H](CCCC(=O)O)C(=O)NC2(C(=O)NCCOCCOCCNC(=O)CCC(=O)NCCOCCOCCNC(=O)CCC(=O)N[C@@H](CCCCNC(=O)CN3CCCN4CCN(CCCN(CC(=O)O)CC4)CC3)C(N)=O)CCCCC2)cc1 [copper-64 labelled],,PET/CT,"C57BL/6 mice, B16-F10 tumour","intravenous, 2 h, with: LLP2A 100 µg blocking",tumour to background ratio,4.2 ± 0.3
"CCN1C(=CC=CC=CC2=[N+](CCCCCC(=O)NCCCC[C@H](NC(=O)CN3CCN(CC(=O)O)CCN(CC(=O)O)CCN(CC(=O)O)CC3)C(=O)NCC(=O)NCC(=O)N[C@@H](Cc3ccc(O)cc3)C(=O)NCC(=O)N[C@H]3CSSC[C@@H]4NC(=O)CNC(=O)[C@H](C)NC(=O)[C@H](CC(C)C)NC(=O)[C@@H]5CSSC[C@@H](C(=O)NCC(N)=O)NC(=O)[C@H](Cc6ccccc6)NC(=O)CNC(=O)[C@H](CC(N)=O)NC(=O)[C@@H]6CCCN6C(=O)CNC(=O)[C@H](CSSC[C@H](NC(=O)[C@H](CO)NC(=O)[C@H]([C@@H](C)O)NC(=O)[C@@H]6CCCN6C(=O)[C@H](C)NC(=O)[C@H](Cc6c[nH]c7ccccc67)NC(=O)[C@H](CC(=O)O)NC(=O)CNC(=O)[C@H](CCCNC(=N)N)NC(=O)CNC(=O)[C@H](CCC(N)=O)NC(=O)[C@@H]6CCCN6C3=O)C(=O)N[C@@H](CO)C(=O)N[C@@H](CCC(N)=O)C(=O)N[C@@H](CC(=O)O)C(=O)N[C@@H](CO)C(=O)N[C@@H](CC(=O)O)C(=O)N5)NC(=O)[C@H](C(C)C)NC4=O)c3ccc4c(S(=O)(=O)[O-])cc(S(=O)(=O)O)cc4c3C2(C)C)C(C)(C)c2c1ccc1c(S(=O)(=O)O)cc(S(=O)(=O)O)cc21 (single isomer, unassigned) [copper-64 labelled]",,,"nude mouse, U-87 MG xenograft, tumour","intravenous, 100 µCi, 0.5 nmol, 4 h",tissue uptake,5.64 ± 0.83 %ID/g
N=C(N)NCCC[C@@H]1NC(=O)[C@H](CCCCNC(=O)CNC(=O)CNC(=O)CNC(=O)CC[C@H](NC(=O)CCOCCOCCOCCOCCNC(=O)c2ccc(NN)nc2)C(=O)NCC(=O)NCC(=O)NCC(=O)NCCCC[C@@H]2NC(=O)[C@@H](Cc3ccccc3)NC(=O)[C@H](CC(=O)O)NC(=O)CNC(=O)[C@H](CCCNC(=N)N)NC2=O)NC(=O)[C@@H](Cc2ccccc2)NC(=O)[C@H](CC(=O)O)NC(=O)CNC1=O [technetium-99m labelled],,γ-counting,"female athymic nude mice, U-87 MG xenograft, brain","intravenous, 1 h",tissue uptake,0.15 ± 0.02 %ID/g
COc1cccc2c1C(=O)c1c(O)c3c(c(O)c1C2=O)C[C@@](O)(C(=O)CO)C[C@@H]3O[C@H]1C[C@H](NC(=O)[C@H](CC(C)C)NC(=O)[C@H](C)NC(=O)[C@H](CC(C)C)NC(=O)CCNC(=O)CCC(=O)O)[C@H](O)[C@H](C)O1,,,"mouse, E0771 tumour-bearing, kidney","intravenous, 92 µmol/kg",terminal half-life,10.7 h
CC(=O)N(O)CCCCCNC(=O)CCC(=O)N(O)CCCCCNC(=O)CCC(=O)N(O)CCCCCNC(=S)Nc1ccc(NC(=S)NCCOCCOCCOCCOCCC(=O)N[C@@H](CCC(=O)NCCOCCOCCOCCOCCC(=O)NCCCC[C@@H]2NC(=O)[C@@H](Cc3ccccc3)NC(=O)[C@H](CC(=O)O)NC(=O)CNC(=O)[C@H](CCCNC(=N)N)NC2=O)C(=O)NCCOCCOCCOCCOCCC(=O)NCCCC[C@@H]2NC(=O)[C@@H](Cc3ccccc3)NC(=O)[C@H](CC(=O)O)NC(=O)CNC(=O)[C@H](CCCNC(=N)N)NC2=O)cc1 [zirconium-89 labelled],,microPET imaging,"female athymic nude mice, tumour-bearing, tumour","4 h post-injection, with: unlabelled c(RGDfK) 300 µg per mouse",tumour uptake,0.39 ± 0.01 %ID/g

# For quick reference, copied from above:
Molecule,tested on,assay,test system,conditions,quantity,value
N=C(N)NCCC[C@@H]1NC(=O)[C@H](CCCCNC(=O)CNC(=O)CNC(=O)CNC(=O)CC[C@H](NC(=O)CCOCCOCCOCCOCCNC(=O)c2ccc(NN)nc2)C(=O)NCC(=O)NCC(=O)NCC(=O)NCCCC[C@@H]2NC(=O)[C@@H](Cc3ccccc3)NC(=O)[C@H](CC(=O)O)NC(=O)CNC(=O)[C@H](CCCNC(=N)N)NC2=O)NC(=O)[C@@H](Cc2ccccc2)NC(=O)[C@H](CC(=O)O)NC(=O)CNC1=O [technetium-99m labelled],,γ-counting,"female athymic nude mice, U-87 MG xenograft, brain","intravenous, 1 h",tissue uptake,0.15 ± 0.02 %ID/g
